Published values of several laboratories.
Each line is one published result; not all experiments were run side by side. Values joined by “and” are separate records of one study, mostly repeats; a detail may differ. ± gives the spread as reported.

SMILES | organism | assay | test system | conditions | measurement | result
CC(CCN[C@H](CN[C@H](CO)CN1CCC[C@H]1CN[C@H](CN)c1ccccc1)c1ccccc1)c1ccccc1 (stereo partly shown) | Klebsiella pneumoniae | bacterial growth | – | compound alone | IC50 | > 24000 nM
CN1CC[C@H](c2c(O)cc(O)c3c(=O)cc(-c4ccc(C(F)(F)F)cc4)oc23)[C@H](O)C1 | HIV-1 | viral replication | HeLa-CD4-LTR/β-gal, LAI | – | EC50 | > 1000 nM
COc1cc(F)c2c(=O)c3ccc(Oc4ccc(OC(F)(F)F)cc4)cc3[nH]c2c1 | Toxoplasma gondii | parasite growth, beta-galactosidase reporter | HFF, RH | – | EC50 | 0.17 nM
C[C@H](CS)C(=O)N[C@@H](Cc1c[nH]c2ccccc12)C(=O)O | Enterobacter aerogenes | – | IMP-1 producing | 50 µM, added: meropenem | MIC of meropenem | 8 µg/mL
Cc1cccc2c1[nH]c1c(-c3ccc(Cl)c(Cl)c3)nc(C(=O)NCCNCCO)cc12 | Plasmodium falciparum | SYBR Green I | Dd2 | 72 h, asexual blood stage | EC50 | 91 ± 14 nM
COC(C)(C)Cn1nc(-c2ccc3cc(OC4CC4)ccc3c2)c2c(N)ncnc21 | Cryptosporidium parvum | parasite growth | HCT-8 | – | EC50 | > 5000 nM and 5870 nM
O=c1c2ccc(Oc3ccc(OC(F)(F)F)cc3)cc2[nH]c2cc(F)cc(F)c12 | Toxoplasma gondii | parasite growth, beta-galactosidase reporter | HFF, RH | 3 days | EC50 | 0.053 nM
CN1CC[C@H](c2c(O)cc(O)c3c(=O)cc(-c4cccnc4)oc23)[C@H](O)C1 | HIV-1 | viral replication | HeLa-CD4-LTR/β-gal, LAI | – | EC50 | > 1000 nM
O=C(NCCNCCO)c1cc2c([nH]c3ccccc32)c(-c2ccc(Cl)c(Cl)c2)n1 | Plasmodium falciparum | SYBR Green I | Dd2 | 72 h, asexual blood stage | EC50 | 253 ± 3 nM
CCc1cc(-c2ccc3cnn(C)c3c2)cc2c(Nc3cccc(OC)c3)c(C(N)=O)cnc12 | Trypanosoma brucei brucei | cell viability, Alamar blue | bloodstream form | 48 h | EC50 | 7900 ± 2700 nM
O=c1c2ccc(Oc3ccc(OC(F)(F)F)cc3)cc2[nH]c2cc(F)cc(Cl)c12 | Toxoplasma gondii | parasite growth, beta-galactosidase reporter | HFF, RH | – | EC50 | 1.01 nM
C=Cc1cccc(-c2cc(=O)c3c(O)cc(O)c([C@H]4CCN(C)C[C@H]4O)c3o2)c1 | HIV-1 | viral replication | HeLa-CD4-LTR/β-gal, LAI | – | EC50 | 32.1 nM
CCOc1ccc2cc(-c3nn(CC4(O)CN(C)C4)c4ncnc(N)c34)ccc2c1 | Theileria equi | parasite growth, hydroethidine flow cytometry | Florida USDA | 72 h | EC50 | 7810 nM
CN1CC[C@H](c2c(O)cc(O)c3c(=O)cc(-c4ccncc4)oc23)[C@H](O)C1 | HIV-1 | viral replication | HeLa-CD4-LTR/β-gal, LAI | – | EC50 | > 1000 nM
NC[C@@H](NC[C@@H]1CCCN1C[C@@H](CO)NC[C@@H](NCCC1CC2CCC1C2)c1ccccc1)c1ccccc1 (stereo partly shown) | Acinetobacter baumannii | bacterial growth | – | 16 µM, fold shift of IC50, added: amikacin | potentiation of amikacin | 3.3 fold
CCOc1ccc2cc(-c3nn(CC4CCNCC4)c4ncnc(N)c34)ccc2n1 | Theileria equi | parasite growth, hydroethidine flow cytometry | Florida USDA | 72 h | EC50 | 4170 nM

A few entries again:
SMILES | organism | assay | test system | conditions | measurement | result
CN1CC[C@H](c2c(O)cc(O)c3c(=O)cc(-c4ccc(C(F)(F)F)cc4)oc23)[C@H](O)C1 | HIV-1 | viral replication | HeLa-CD4-LTR/β-gal, LAI | – | EC50 | > 1000 nM
CCOc1ccc2cc(-c3nn(CC4CCNCC4)c4ncnc(N)c34)ccc2n1 | Theileria equi | parasite growth, hydroethidine flow cytometry | Florida USDA | 72 h | EC50 | 4170 nM
